Results pooled from the literature.
Numbered parts are unrelated; each lists some results of a single study. Substitutions count along the parent as printed.

Study 1
Target: ATF7, bZIP domain (human)
Method: DHFR protein complementation
Sample: yeast
Setting: single substitutions, most at no-binding floor
Reference: wild-type JUN-FOS pair
Direction: higher = stronger binding
Parent: JUN, bZIP domain (human); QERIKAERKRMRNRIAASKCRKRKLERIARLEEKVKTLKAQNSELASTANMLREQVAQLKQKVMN; partner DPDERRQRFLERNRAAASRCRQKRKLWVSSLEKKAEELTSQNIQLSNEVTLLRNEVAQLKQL
Substitution	binding fitness
Q55G	-1.39 natural log
R30W	-0.929 natural log
K36P	-1.46 natural log
K39R	-0.803 natural log
V56H	-1.42 natural log
Q41G	-1.37 natural log
A40P	-1.43 natural log
L52I	-1.48 natural log
K34H	-0.877 natural log
L38D	-1.12 natural log
T37Y	-1.06 natural log
T48R	-1.16 natural log

Study 2
Target: Histone acetyltransferase KAT6A, both winged helices, GST fusion (KAT6A, Homo sapiens, UniProt Q92794, residues 1-181)
Method: protein binding microarray
Molecule type: double-stranded DNA, one strand shown
Sample: in vitro
Concentration: not given
Setting: 8-mer, flanks averaged, mean of 2 arrays, mostly near background
Reference: not given
Direction: higher = stronger binding
Target sequence (chain): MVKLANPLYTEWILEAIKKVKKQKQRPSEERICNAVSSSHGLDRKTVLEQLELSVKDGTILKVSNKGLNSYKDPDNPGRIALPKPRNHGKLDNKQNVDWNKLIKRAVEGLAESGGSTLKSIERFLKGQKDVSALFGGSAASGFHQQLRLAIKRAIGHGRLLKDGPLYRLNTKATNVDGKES
Oligonucleotide	E-score
TAACCCCA	-0.167
CGAGTGTA	0.091
AACGGCTG	0.209
AACAACGT	-0.0284
CTGGGCGA	-0.0516
AAGCTAGC	-0.0818
GCGGGTCA	0.184
AGTCATTA	-0.125
GCGCACTA	0.249
CGAGTTTA	0.051
GATTCGAA	-0.0151
AAATAACA	0.0909
ATCATTGC	-0.144
CGGGAGTA	0.184
GCATGAAC	0.0734
CAATACTA	-0.0688
AAATGACT	-0.0854
AGGACGTA	-0.157

Study 3
Target: ABI1, truncated, D143A, DHFR fusion (Arabidopsis thaliana)
Method: DHFR PCA, deep sequencing
Sample: yeast
Setting: methotrexate growth selection, single substitutions
Together with: (+)-ABA 0 µM
Reference: wild-type fitted maximum
Direction: higher = stronger binding
Parent: PYL1, truncated, DHFR fusion (Arabidopsis thaliana); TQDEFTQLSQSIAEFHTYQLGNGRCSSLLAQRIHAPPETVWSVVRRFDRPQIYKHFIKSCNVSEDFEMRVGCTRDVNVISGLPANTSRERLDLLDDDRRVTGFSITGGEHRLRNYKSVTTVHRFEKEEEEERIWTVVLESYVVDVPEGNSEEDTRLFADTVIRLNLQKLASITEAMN; partner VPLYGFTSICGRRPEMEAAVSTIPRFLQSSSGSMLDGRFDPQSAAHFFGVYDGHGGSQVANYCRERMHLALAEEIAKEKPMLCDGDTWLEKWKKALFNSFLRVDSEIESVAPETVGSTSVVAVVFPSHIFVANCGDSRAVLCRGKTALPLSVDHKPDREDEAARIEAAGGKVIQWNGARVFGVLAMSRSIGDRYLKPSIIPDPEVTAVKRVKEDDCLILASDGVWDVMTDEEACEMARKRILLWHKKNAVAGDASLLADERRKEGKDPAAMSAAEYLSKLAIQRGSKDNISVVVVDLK
Substitution	relative binding score [%]
R32T	35.3
I162D	9.4
L82H	29.8
L82E	1.38
G108Q	2.47
R46W	-2.03
M176K	3.59
R111W	6.78
P83A	21.3
N177A	51.6
Q7L	18
F56S	-0.736
I133K	17.6
F56K	-0.174
K168S	12.4
T106R	-0.568

Study 4
Target: CCNE2, cyclin fold, Cln2 fusion (human)
Method: yeast growth competition, sequencing
Sample: yeast
Setting: strong parent motif
Reference: not given
Direction: higher = stronger binding
Parent: RBL2 docking peptide (human); STTRRRLFVENDS; partner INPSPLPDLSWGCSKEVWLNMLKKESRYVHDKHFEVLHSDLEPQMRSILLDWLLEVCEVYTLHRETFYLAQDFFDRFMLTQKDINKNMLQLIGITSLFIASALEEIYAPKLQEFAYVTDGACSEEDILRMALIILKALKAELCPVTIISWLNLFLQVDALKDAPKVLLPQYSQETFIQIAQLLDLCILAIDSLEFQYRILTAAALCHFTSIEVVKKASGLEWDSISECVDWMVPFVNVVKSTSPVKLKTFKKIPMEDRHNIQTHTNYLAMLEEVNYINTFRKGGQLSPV
Substitution	normalised enrichment score
STTRRRLFVENPS [D12P]	4.48
STTRRRLFVEWDS [N11W]	4.22
STTRRRLFVEHDS [N11H]	3.67
SHTRRRLFVENDS [T2H]	5.02
STTRNRLFVENDS [R5N]	0.144
STTRRRTFVENDS [L7T]	0.494
STTRRRLPVENDS [F8P]	1.26
STTRRRPFVENDS [L7P]	0.68
STTRRVLFVENDS [R6V]	2.51
STTRRRLFPENDS [V9P]	3.34
STKRRRLFVENDS [T3K]	1.02
STTRRCLFVENDS [R6C]	1.72
STTRRGLFVENDS [R6G]	0.34
STTRRRLFVEVDS [N11V]	4.24
STTRRRLFVENTS [D12T]	3.32
SETRRRLFVENDS [T2E]	3.85
STTRRRLFDENDS [V9D]	3.28
STTRHRLFVENDS [R5H]	0.886
STTRRRLFVENDQ [S13Q]	3.37
STTRCRLFVENDS [R5C]	0.745
STQRRRLFVENDS [T3Q]	0.907
STTRRRLKVENDS [F8K]	0.377
SKTRRRLFVENDS [T2K]	5.78
STTRDRLFVENDS [R5D]	-0.0423
STTRRRLFVENDR [S13R]	4.36
